Assay results gathered from unrelated publications.
Each numbered part is a random draw from the data of one study; scales do not carry over between parts. Positions count from the first letter of the parent shown.

Series 1 — target: CCND1, cyclin fold, Cln2 fusion (human); technique: yeast growth competition, sequencing; medium: yeast; notes: weak parent motif; relative to: not given; direction: higher = stronger binding
Starting sequence: MASTL docking peptide (human); PMIAKNLMCELDE
Change | normalised enrichment score
PMYAKNLMCELDE [I3Y] | 0.541
PMIAKNLMCEGDE [L11G] | 0.163
PMIAKNLMFELDE [C9F] | 0.452
PMIAKNTMCELDE [L7T] | -0.272
PHIAKNLMCELDE [M2H] | 0.26
PMIAINLMCELDE [K5I] | 0.35
PMICKNLMCELDE [A4C] | 0.328
PMIIKNLMCELDE [A4I] | 0.256

Series 2 — technique: protein-binding microarray; form: double-stranded DNA, one strand shown; medium: in vitro; tested at: 2540 nM top; notes: 60-bp whole probe; with: salmon DNA 0.4 mg/ml; relative to: random background probes; direction: higher = stronger binding; shared flanks, not repeated: GCCTAGCAC … GTCTTGATTCGCTTGACGCTGCTG
Target: Interferon regulatory factor 3, full length, phosphomimetic (IRF3, Homo sapiens, UniProt Q14653, residues 1-427, S386D/S396D/S398D/S402D/T404D/S405D)
Sequence of UniProt Q14653 (whole entry, unmodified, looked up): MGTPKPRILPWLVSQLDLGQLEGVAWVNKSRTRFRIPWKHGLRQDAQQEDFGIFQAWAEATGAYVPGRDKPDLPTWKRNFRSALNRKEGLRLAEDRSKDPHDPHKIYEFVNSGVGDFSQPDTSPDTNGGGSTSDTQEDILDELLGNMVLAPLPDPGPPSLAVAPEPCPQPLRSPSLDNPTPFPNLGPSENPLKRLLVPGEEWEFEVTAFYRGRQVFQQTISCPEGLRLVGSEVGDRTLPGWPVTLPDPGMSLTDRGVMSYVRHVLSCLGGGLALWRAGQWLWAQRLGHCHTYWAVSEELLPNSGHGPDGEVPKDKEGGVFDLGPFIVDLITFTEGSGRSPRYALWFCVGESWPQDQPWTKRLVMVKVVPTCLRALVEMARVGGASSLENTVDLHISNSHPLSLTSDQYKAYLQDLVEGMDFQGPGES
Oligonucleotide | fitted relative affinity [z-score]
TCATTTTTGCTTACGATACTGTGCTAG | 1.58
GACGGTTTCCGTTTCGGGACGTGCTAG | 8.85
CTAGATCTCAGTCTCGATTAGTGCTAG | 0.679
TCAGGCTTCTATGTAGTACTGTGCTAG | -0.76
TTAGTTATCGACTTTCGGTTAGTGCTA | 2.04
GACGGTACCGGACTGGGGACGTGCTAG | 0.593
TCAACTAGGGCATTTAGAACTGTGCTA | -0.616
TTAGATATCGGTTTCGGTTAGTGCTAG | 6.37
GGGGATAAACTTAATGGATGGTGCTAG | -0.562
TTTCCTCTTTCTTTGCTTCAGTGCTAG | 5.85
GACGGTTCCCTTTTGCTGACGTGCTAG | 5.59
TTAGGACTGGTACTGCTTTAGTGCTAG | -0.553
GACGGTATCTGTTTCGGGACGTGCTAG | 4.8
GACGGACTGCTTATCCCGACGTGCTAG | -0.226
TTAGGTTTCCTTTTCCTTAAGTGCTAG | 11.9
GACTGACTGGGGTATCGGGACGTGCTA | -0.473

Series 3 — technique: aptamer microarray, sandwich; form: DNA with 2'F-ANA; medium: in vitro; tested at: 200 nM; with: Cy3 exosite-II aptamer, 400 nM; direction: higher = stronger binding; oligonucleotide: GGTTGGTGTGGTTGG
Target: Prothrombin, mature alpha-thrombin (F2, Homo sapiens, UniProt P00734)
Notes: whole 15-mer aptamer, many near background
Modification | mean fluorescence intensity [a.u.]
2'F-ANA at 1 2 3 6 7 8 13 15 | 185
2'F-ANA at 1 5 10 11 13 | 57.4
2'F-ANA at 1 3 4 11 13 14 15 | 71.9
2'F-ANA at 3 5 7 9 11 14 15 | 52.1
2'F-ANA at 1 3 4 5 8 9 10 12 13 14 | 65.8
2'F-ANA at 1 4 8 10 11 12 13 | 50.9
2'F-ANA at 2 3 6 8 9 10 11 12 13 14 | 232
2'F-ANA at 1 5 11 12 13 15 | 66.7
2'F-ANA at 6 8 9 10 12 13 14 | 111
2'F-ANA at 3 5 6 7 12 15 | 214
2'F-ANA at 3 4 6 7 8 9 10 11 12 14 | 156
2'F-ANA at 1 5 8 9 10 12 14 | 69.9
2'F-ANA at 1 2 6 11 12 13 | 212
2'F-ANA at 1 2 3 4 5 10 11 12 13 15 | 64.4
2'F-ANA at 1 2 3 4 6 7 8 9 11 12 | 315
2'F-ANA at 1 4 8 11 12 14 15 | 66.9

Single results of other studies
Molecule | target | test | test system | conditions | scale | measurement | result
PhoQ, residues 284 288 289 292 302 303 SCKMEA | PhoP, residues 12 14 15 18 19 QWHVF (Escherichia coli, UniProt P23836) | Sort-seq, refers to: YFP reporter | E. coli | PhoQ-PhoP variant library, with: 10 µM Mg2+ | relative to: high Mg2+ state, higher = stronger signaling | fold induction | 25.6
